Experimental data collected from several papers.
Every numbered part comes from another study and shows a few of its results, in no order. Changes are numbered by the printed parent chain.

Set 1
Target: RING finger protein unkempt homolog, zinc fingers 1-6, GST-SBP tag (UNK, Homo sapiens, UniProt Q9C0B0, residues 30-357)
Chain of UniProt Q9C0B0 (30-357, looked up): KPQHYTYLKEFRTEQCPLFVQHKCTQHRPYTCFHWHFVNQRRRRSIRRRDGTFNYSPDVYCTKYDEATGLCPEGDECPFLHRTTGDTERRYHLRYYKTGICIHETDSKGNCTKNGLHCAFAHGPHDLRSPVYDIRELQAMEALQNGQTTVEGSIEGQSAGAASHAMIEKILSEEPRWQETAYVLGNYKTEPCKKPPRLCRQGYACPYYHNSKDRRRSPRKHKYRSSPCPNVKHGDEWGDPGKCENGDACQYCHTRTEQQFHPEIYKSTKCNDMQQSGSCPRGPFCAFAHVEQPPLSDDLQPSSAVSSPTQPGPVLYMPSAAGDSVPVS
Technique: RNA Bind-n-Seq
Molecule type: RNA
Matrix: in vitro
Concentration: not given
Notes: RNA with constant flanks, human-mouse chimeric sites, ends assumed
Baseline: input RNA pool
Reading: higher = stronger binding
Quantity: bound/input enrichment
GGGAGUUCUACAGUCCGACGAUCGGCUGCUGGUGACUGUCGGGAGCCGUCUGGAGUUCCCGCCGGAGCGCGGCCAGACUAAUUUUAGAAAAUGCCAAGUAGGAAAUUUGCUGAGGGUGAAGUGGUCAGAGGCCGAUGGCCUGGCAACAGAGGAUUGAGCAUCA: 1.99 ratio
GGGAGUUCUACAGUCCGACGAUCUGGCGCCUGCGCUCCCCACUCGUGUUUUUAAGUGUAUUUUUAUAAGAUACAUGUAUUUACAAUUGAGCUUUUGUUACUAUAAUACUGAAACAUCUCUGAGAUUAUGAAAAAUGUUUCAAUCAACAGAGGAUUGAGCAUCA: 0.136 ratio
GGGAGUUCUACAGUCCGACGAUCCUGAGGAUACCACUGAAAGAGACAUUAAAGAAUCAUUUGAGGGCUCUGUUCGUGCAAGAAUAGUCACUGAUCGGGAAACUGGUUCUUUCCAAAGGGUUGGUUUUGUAGACUUUAAUAGUGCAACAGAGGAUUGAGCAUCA: 0.858 ratio
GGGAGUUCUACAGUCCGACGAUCCUGUGACCACAAGAUCCUACCUGAGUGUUCAGAUGGGUUGACUCCCUCUCCUUGCCUGAACCCCCCCCUUUUGUUCCCCCAUCCCCCAGUGUCGGCUGAGAUGUUGCCUCUGCACGGUUCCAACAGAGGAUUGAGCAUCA: 1.32 ratio
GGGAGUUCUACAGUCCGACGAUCAUUCCGAUUAUGGACACCGGUGAAAACCCAGAGGUUCCCUUCCCCCGGGACAUGAUUGACUUAGAGGCCAAUUUCGAGAAGAUUGAAAAUGAACUGAAGGAAAUCAACACAAACCAGGAACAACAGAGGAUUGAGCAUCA: 0.0988 ratio
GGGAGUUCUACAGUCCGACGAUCUACUGCUGCUUUCAACUUAAAUCACUGCAUUUUUACUACUGUUCUGUGAGCAUCAGGACUGUAGCGCUGUGUCACCACAUGAGAGUUCAGAAGCAGCCUUUCUGUGGAGGGUGGGAAUGACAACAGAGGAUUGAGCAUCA: 0.214 ratio
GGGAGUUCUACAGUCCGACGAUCCUUAAUGUUAAUAUUUUUGAAUAAAUGAAGCUAAAAUGUCUGCUUUUGGUACAACACGCAUUAAUAAAAGGUUAAGUAAGUUUUGUUACUGAAGUACGUAAUACUUACUCAGAAAAAAACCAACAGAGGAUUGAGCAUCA: 0.367 ratio
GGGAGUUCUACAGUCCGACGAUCCACAGAGCAGCACCUACCCCCUCCUCCUUUCCACACCUGCAAACUCUUUUACUUGGGCUGAAUAUUUAGUGUUAAUUCAUCUCAGCUUUUGAGGGCUCUGUGGCAAAUUCCCGGAUUAAACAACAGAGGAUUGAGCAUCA: 0.538 ratio

Set 2
Target: CEP164, C-terminal peptide (human)
Technique: DHFR complementation, deep sequencing
Matrix: yeast
Notes: single substitutions, model-inferred values
Baseline: wild type
Reading: higher = weaker binding
Quantity: binding free energy change
Parent: PDZK1, PDZ domain 2 (human); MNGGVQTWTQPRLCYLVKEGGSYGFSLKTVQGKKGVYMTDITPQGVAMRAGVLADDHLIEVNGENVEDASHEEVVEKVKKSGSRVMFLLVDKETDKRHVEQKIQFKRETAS; partner HNRVKVYRF
D55N: 0.312 kcal/mol
G21F: 0.0806 kcal/mol
D40T: 1.24 kcal/mol
E64Y: 0.342 kcal/mol
L89G: 1.84 kcal/mol
S22W: -0.833 kcal/mol
K80Q: 0.487 kcal/mol
M86S: -0.284 kcal/mol

Other studies, line by line
KCVKRKLFAEDSS  median binding score (human cyclin A2; peptide binding, competitive growth sequencing; peptide, Saccharomyces cerevisiae, cyclin A2-Cln2 fusion strain; concentration not given, single-residue mutant peptides; baseline: unfused Cln2 strain, direction not given): 6.77
PhoQ, residues 284 288 289 292 302 303 GLASVI  fold induction (PhoP, residues 12 14 15 18 19 NQGLL (Escherichia coli, UniProt P23836); Sort-seq, refers to: YFP reporter; E. coli; PhoQ-PhoP variant library, added: 10 µM Mg2+; baseline: high Mg2+ state, higher = stronger signaling): 7
KDVKRKLFAEDSS  median binding score (human cyclin A2; peptide binding, competitive growth sequencing; peptide, Saccharomyces cerevisiae, cyclin A2-Cln2 fusion strain; concentration not given, single-residue mutant peptides; baseline: unfused Cln2 strain, direction not given): 6.27

Excerpt of the above (set 1):
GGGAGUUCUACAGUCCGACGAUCUGGCGCCUGCGCUCCCCACUCGUGUUUUUAAGUGUAUUUUUAUAAGAUACAUGUAUUUACAAUUGAGCUUUUGUUACUAUAAUACUGAAACAUCUCUGAGAUUAUGAAAAAUGUUUCAAUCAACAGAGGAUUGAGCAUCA: 0.136 ratio
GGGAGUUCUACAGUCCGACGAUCCUGAGGAUACCACUGAAAGAGACAUUAAAGAAUCAUUUGAGGGCUCUGUUCGUGCAAGAAUAGUCACUGAUCGGGAAACUGGUUCUUUCCAAAGGGUUGGUUUUGUAGACUUUAAUAGUGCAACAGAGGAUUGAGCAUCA: 0.858 ratio
